Experimental data gathered from unrelated publications.
Compare with care: the assays were run in different laboratories. “And” joins repeats or separate records; there may be more than shown. Numbers after ± are the reported error.

SMILES = NC(=S)N/N=C/c1ccc(OCc2cccc(F)c2)cc1; tested on = IMR-32; test = MTT; conditions = 400 µg/mL, 24 h; scale = reference: untreated control; endpoint = viability; result = 37.9%
SMILES = CC(=O)N[C@H]1[C@H](Oc2ccc(C[C@H](NC(=O)CN)C(=O)N[C@@H](CCC(=O)O)C(=O)N[C@H](C(=O)N[C@@H](Cc3c[nH]cn3)C(=O)N[C@@H](Cc3c[nH]cn3)C(=O)N[C@@H](CCC(N)=O)C(=O)N[C@@H](CCCCN)C(=O)N[C@@H](CC(C)C)C(=O)N[C@H](C(=O)N[C@@H](Cc3ccccc3)C(=O)N[C@@H](Cc3ccccc3)C(=O)N[C@@H](C)C(N)=O)C(C)C)C(C)C)cc2)O[C@H](CO)[C@H](O)[C@@H]1O; tested on = SH-SY5Y; test = CCK-8; conditions = 25 µM, 24 h; scale = reference: untreated; endpoint = viability; result = 95.8% and 93% and 103% and 92.9%
SMILES = O=c1n(CCNCCOS(=O)(=O)c2ccccc2)c(=O)n(S(=O)(=O)c2ccccc2)c(=O)n1S(=O)(=O)c1ccccc1; tested on = HUVEC; test = cell growth or viability, MTT; conditions = 100 µg/mL, 48 h; endpoint = viability; result = 22.5%
SMILES = CC(=O)N[C@@H](Cc1c[nH]c2ccccc12)C(=O)NCCCCCCCCCCCC(=O)NCCCC[C@@H]1NC(=O)[C@H](CCCNC(=N)N)NC(=O)[C@H](CCCNC(=N)N)NC(=O)[C@H](CCCNC(=N)N)NC(=O)[C@H](CCCNC(=N)N)NC(=O)[C@H](CCCNC(=N)N)NC1=O; tested on = SK-OV-3; test = MTS; conditions = concentration not given, 24 h, up to 15 µM; endpoint = viability; result = ≥ 74%
SMILES = CNC(=S)N/N=C/c1ccc(OCc2ccccc2)cc1; tested on = IMR-32; test = MTT; conditions = 500 µg/mL, 24 h; scale = reference: untreated control; endpoint = viability; result = 43.5%
SMILES = CNC(=O)C[C@H](Cc1ccccc1)NC(=O)[C@@H](Cc1ccc(Cl)cc1Cl)NC(=O)[C@H](N)Cc1ccccc1C#N; tested on = Huh-7-ACE2; test = CellTiter-Glo; conditions = 0.0122 µM, 48 h, unit not given; scale = reference: DMSO; endpoint = viability; result = 1.09 and 0.967 and 0.91
SMILES = NC(=O)N/N=C/c1ccc(OCc2cccc(F)c2)cc1; tested on = IMR-32; test = MTT; conditions = 100 µg/mL, 24 h; scale = reference: untreated control; endpoint = viability; result = 71%
SMILES = CNC(=O)C[C@H](Cc1ccc(F)cc1)NC(=O)[C@@H](Cc1ccc(Cl)cc1Cl)NC(=O)[C@H](N)Cc1ccccc1[N+](=O)[O-]; tested on = Huh-7-ACE2; test = CellTiter-Glo; conditions = 0.0122 µM, 48 h, unit not given; scale = reference: DMSO; endpoint = viability; result = 1.04 and 0.89 and 0.895
SMILES = COc1cc(OCc2cccc(-c3ccccc3)c2C)cc(OC)c1CN1CCCC[C@H]1C(=O)O; tested on = Jurkat E6-1; test = WST-8; conditions = 10 µM, 24 h; scale = reference: control; endpoint = viability; result = 58.6%
SMILES = CCOc1ccc(CN2CC[C@H]2C(=O)NC)cc1-c1cccc(C(=O)NC[C@@H]2COC(C)(C)O2)c1; tested on = Huh-7-ACE2; test = CellTiter-Glo; conditions = 0.0061 µM, 48 h, unit not given; scale = reference: DMSO; endpoint = viability; result = 1 and 0.939 and 1.04
SMILES = O=C1NC2(CC2)COc2ncc(F)cc2[C@H]2COCCN2c2ccn3ncc1c3n2; system = Sprague-Dawley rat, male, testes; conditions = oral, 10 mg/kg/day, 4 weeks dosing, end of recovery; endpoint = organ-to-body weight ratio; result = 0.648 ± 0.046%

Repeated from above:
SMILES = CNC(=O)C[C@H](Cc1ccc(F)cc1)NC(=O)[C@@H](Cc1ccc(Cl)cc1Cl)NC(=O)[C@H](N)Cc1ccccc1[N+](=O)[O-]; tested on = Huh-7-ACE2; test = CellTiter-Glo; conditions = 0.0122 µM, 48 h, unit not given; scale = reference: DMSO; endpoint = viability; result = 1.04 and 0.89 and 0.895
